Experimental data gathered from unrelated publications.
Compare with care: the assays were run in different laboratories. “And” joins repeats or separate records; there may be more than shown.
Target: Protein-tyrosine kinase 2-beta (PTK2B, Homo sapiens, UniProt Q14289)

NC(=O)[C@@H](O)C[C@H]1CCc2sc3ncnc(O[C@H]4CC[C@H](N5CCOCC5)CC4)c3c21 has an inhibition of 7% (enzyme activity, inhibitor; 10 µM).
With COc1ccc(NC(=O)Nc2ccc3c(c2)C(=O)N(C(C)CO)CC(C)C(CN(C)Cc2ccc4c(c2)OCO4)O3)cc1 (stereo not drawn) the remaining activity was 99% (kinase activity, KinaseProfiler; 0.03 µM, species human; reference: control).
With CN1CCN(Cc2ccc(-c3ccc(CO[C@H]4CCC[C@@H]4NC(=O)c4cc(-c5cnn(C)c5)cnc4N)cc3)cc2)CC1 the inhibition was 4% (enzyme activity, inhibitor; 0.1 µM).
With CC(C)=CC1OC(C)(C)C2C=C3C(=O)C(Cl)=CC(O)C3C3C(O)C4OC4C(=O)C132 (stereo not drawn) the remaining binding was 91% (cell-free assay, competition with immobilised ligand; 10 µM).
CNC(=O)C1CCN(c2cc(C)c(F)cc2NC(=O)c2ccc(-c3cc(O)ccc3C)c(C)c2)CC1 has a remaining binding of 100% (binding, competition with immobilised ligand; 1 µM).
CCn1cc(C(=O)O)c(=O)c2c(N)c(F)c(NC3CCCCC3)cc21 has an inhibition of -0.9% (kinase activity; 0.1 µM, together with: ATP at Km).
The remaining activity of COc1cc(Nc2nc(C)cc(-c3cnn4nc(OC)ccc34)n2)cc(C(F)(F)F)c1 is reported as 99% (inhibitor; 1 µM, PYK2; reference: control).
COc1c(OCCCN2CCOCC2)ccc2c1N=C(NC(=O)c1cnc(N)nc1)N1CCN=C21 has a remaining activity of 106% (kinase activity, inhibitor; 1 µM; reference: untreated control).
With O=C=[N][Ru-4]123([n]4c5ccc(O)cc5c5c6c(c7cc(F)c[n+]1c7c54)C(=O)NC6=O)[S+]1CC[S+]2CC[S+]3CC1 (stereo not drawn) the remaining activity was 62% (enzyme activity; 100 nM, human enzyme, together with: 10 µM ATP; reference: untreated).
C=CC(=O)Nc1cccc(-c2cnc3[nH]cc(C(=O)NC(C)(C)C)c3n2)c1 has an inhibition of 10% and 7% (kinase activity; 0.1 µM).
CCN1CCN(Cc2ccc(C(=O)Nc3ccc(C)c(NCc4cnc5[nH]ccc5c4OC)c3)cc2C(F)(F)F)CC1 has a remaining binding of 25% (binding, competition with immobilised ligand; 1 µM).
The remaining binding of Cc1cnc2nc1Nc1cccc(c1)COC/C=C/COCc1cc(ccc1OCCN1CCOCC1)N2 is reported as 84% (binding, competition with immobilised ligand; 0.1 µM).
With C=CC(=O)N1Cc2nc(-c3cc(-c4cc(Cl)cnc4Cl)c(F)cc3F)n(-c3ccncn3)c2C1 the inhibition was 4.4% (cell-free assay, inhibitor; 1 µM).
COc1c(Cl)cccc1Nc1c(-c2ccncc2C#C[C@@]2(C)CCCN2C(=O)/C=C/CN(C)C)[nH]c2c1C(=O)NCC2 gave a remaining binding of 93% (cell-free assay, competition with immobilised ligand; 3 µM).
Cc1cccc(O[C@H]2CCC[C@@H](C(C)CNCc3ccncc3)C2)c1 (relative stereo) has an inhibition of 1% (enzyme activity, inhibitor; 10 µM).

Some of these lines once more:
COc1c(OCCCN2CCOCC2)ccc2c1N=C(NC(=O)c1cnc(N)nc1)N1CCN=C21 has a remaining activity of 106% (kinase activity, inhibitor; 1 µM; reference: untreated control).
